{"data": "Results collected from several papers", "note": "Numbered parts are unrelated; each lists some results of a single study.", "sequence of UniProt P16591 (whole entry, looked up)": "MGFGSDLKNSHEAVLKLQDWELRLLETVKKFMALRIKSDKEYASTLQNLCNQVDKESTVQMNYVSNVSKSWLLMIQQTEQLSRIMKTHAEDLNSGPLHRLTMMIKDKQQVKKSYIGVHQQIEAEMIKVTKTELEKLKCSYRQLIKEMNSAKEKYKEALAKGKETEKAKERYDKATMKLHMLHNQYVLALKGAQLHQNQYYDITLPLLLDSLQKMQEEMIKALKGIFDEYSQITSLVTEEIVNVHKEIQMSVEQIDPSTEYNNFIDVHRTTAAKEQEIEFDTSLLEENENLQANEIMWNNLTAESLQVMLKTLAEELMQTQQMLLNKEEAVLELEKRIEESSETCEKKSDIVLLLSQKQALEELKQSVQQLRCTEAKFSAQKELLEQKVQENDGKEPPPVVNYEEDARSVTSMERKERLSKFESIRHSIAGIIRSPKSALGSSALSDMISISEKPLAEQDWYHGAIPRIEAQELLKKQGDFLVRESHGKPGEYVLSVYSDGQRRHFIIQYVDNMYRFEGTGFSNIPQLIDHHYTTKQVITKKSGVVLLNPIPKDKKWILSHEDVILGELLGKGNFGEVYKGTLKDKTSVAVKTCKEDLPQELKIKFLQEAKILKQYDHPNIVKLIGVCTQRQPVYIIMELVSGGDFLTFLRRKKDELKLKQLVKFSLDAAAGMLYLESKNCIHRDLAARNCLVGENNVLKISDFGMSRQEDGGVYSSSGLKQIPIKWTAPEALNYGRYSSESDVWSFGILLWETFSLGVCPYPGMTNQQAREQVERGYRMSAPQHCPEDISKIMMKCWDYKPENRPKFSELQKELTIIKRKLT", "sequence of UniProt Q8IW41 (whole entry, looked up)": "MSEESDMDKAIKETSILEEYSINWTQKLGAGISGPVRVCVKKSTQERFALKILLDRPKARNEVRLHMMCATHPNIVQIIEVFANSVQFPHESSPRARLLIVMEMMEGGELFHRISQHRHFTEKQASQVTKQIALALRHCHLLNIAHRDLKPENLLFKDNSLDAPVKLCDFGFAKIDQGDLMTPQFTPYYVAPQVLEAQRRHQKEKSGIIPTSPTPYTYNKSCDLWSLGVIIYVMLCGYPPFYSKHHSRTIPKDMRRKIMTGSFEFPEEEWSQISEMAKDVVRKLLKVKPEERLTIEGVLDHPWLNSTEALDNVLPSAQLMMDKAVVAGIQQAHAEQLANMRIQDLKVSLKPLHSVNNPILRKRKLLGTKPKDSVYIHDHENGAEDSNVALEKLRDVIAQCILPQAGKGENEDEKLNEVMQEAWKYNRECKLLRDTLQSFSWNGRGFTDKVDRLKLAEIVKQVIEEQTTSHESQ", "sequence of UniProt P27037 (whole entry, looked up)": "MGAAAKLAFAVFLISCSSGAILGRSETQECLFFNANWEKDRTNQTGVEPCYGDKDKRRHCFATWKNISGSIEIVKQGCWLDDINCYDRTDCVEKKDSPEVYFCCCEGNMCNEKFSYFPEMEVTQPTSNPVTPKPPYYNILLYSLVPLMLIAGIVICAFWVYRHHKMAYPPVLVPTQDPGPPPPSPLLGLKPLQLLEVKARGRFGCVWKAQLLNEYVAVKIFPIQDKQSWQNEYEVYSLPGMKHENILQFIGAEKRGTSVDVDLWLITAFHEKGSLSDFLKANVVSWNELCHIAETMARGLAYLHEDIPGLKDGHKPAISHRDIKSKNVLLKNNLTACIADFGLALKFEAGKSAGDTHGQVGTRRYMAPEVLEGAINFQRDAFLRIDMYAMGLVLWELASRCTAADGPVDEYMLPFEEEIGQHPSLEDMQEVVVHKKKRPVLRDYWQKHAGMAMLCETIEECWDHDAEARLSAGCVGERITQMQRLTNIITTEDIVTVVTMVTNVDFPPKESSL", "sequence of UniProt P57059 (whole entry, looked up)": "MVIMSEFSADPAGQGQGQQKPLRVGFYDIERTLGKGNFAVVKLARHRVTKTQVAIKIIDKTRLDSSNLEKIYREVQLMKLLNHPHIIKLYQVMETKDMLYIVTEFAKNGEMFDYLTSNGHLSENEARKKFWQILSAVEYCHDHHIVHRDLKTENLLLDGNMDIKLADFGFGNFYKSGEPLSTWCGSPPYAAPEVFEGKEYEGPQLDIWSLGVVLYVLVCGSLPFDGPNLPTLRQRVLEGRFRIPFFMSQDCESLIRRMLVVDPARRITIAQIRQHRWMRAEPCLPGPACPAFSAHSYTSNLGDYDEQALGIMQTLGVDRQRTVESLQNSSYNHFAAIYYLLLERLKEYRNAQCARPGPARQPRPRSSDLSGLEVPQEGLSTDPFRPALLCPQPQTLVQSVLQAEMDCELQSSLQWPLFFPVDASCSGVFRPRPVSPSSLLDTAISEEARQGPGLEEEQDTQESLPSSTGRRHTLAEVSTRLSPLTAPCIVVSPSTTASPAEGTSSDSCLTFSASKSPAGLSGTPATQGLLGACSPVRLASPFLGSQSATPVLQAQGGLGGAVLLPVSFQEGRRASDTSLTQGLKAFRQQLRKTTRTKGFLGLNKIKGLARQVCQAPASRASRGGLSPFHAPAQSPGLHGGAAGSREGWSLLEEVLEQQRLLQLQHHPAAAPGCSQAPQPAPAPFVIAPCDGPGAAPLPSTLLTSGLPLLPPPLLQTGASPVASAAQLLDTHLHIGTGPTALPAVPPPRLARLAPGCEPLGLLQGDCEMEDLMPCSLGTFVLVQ"}
{"data": "Series 1", "Structure (SMILES)": "O=C(Nc1cnc(Oc2ccc(F)cc2)nc1)N1CCc2ncccc2[C@@H]1c1ccc(F)cc1", "concentration": "1 µM"}
{"target": "Serine/threonine-protein kinase SIK1 (SIK1, Homo sapiens, UniProt P57059)", "method": "competition binding", "remaining binding [%]": 88}
{"target": "MAP kinase-activated protein kinase 5 (MAPKAPK5, Homo sapiens, UniProt Q8IW41)", "observed": "cell-free assay", "method": "competition with immobilised ligand", "remaining binding [%]": 91}
{"target": "Receptor-type tyrosine-protein kinase FLT3 (FLT3, Homo sapiens, UniProt P36888, D835Y)", "observed": "cell-free assay", "method": "competition with immobilised ligand", "remaining binding [%]": 100}
{"target": "Activin receptor type-2A (ACVR2A, Homo sapiens, UniProt P27037)", "observed": "cell-free assay", "method": "competition with immobilised ligand", "remaining binding [%]": 83}
{"target": "Tyrosine-protein kinase Fer (FER, Homo sapiens, UniProt P16591)", "observed": "cell-free assay", "method": "competition with immobilised ligand", "remaining binding [%]": 93}
{"data": "Series 2", "cell line": "mouse MPNST tumor cells", "method": "high-content nuclear imaging", "refers to": "cell number", "concentration": "10 µM", "time": "12 h", "notes": "mean of 2 replicates", "baseline": "plate mean", "reading": "higher = more cells"}
{"Structure (SMILES)": "CC(CCC(=O)O)C1CCC2C3C(O)CC4CC(O)CCC4(C)C3CCC12C (stereo not drawn)", "nuclei count": "0.445 z-score"}
{"Structure (SMILES)": "CC(C(O)c1ccc(O)cc1)N1CCC(Cc2ccccc2)CC1 (stereo not drawn)", "nuclei count": "0.588 z-score"}
{"Structure (SMILES)": "Cc1cnc(-c2ccccc2C(C)C)nc1NCc1ccc(-n2ccnn2)cc1", "nuclei count": "0.1 z-score"}
{"Structure (SMILES)": "CCOc1ncc(S(=O)(=O)N2CCN(CC)CC2)cc1-c1nc2c(CC)n(CCOC)nc2c(=O)[nH]1", "nuclei count": "0.14 z-score"}
{"Structure (SMILES)": "CCCCCCCCCCC(O)C1C=CC2C(=O)N(c3ccccc3)C(=O)C2N1Nc1ccc([N+](=O)[O-])cc1 (stereo not drawn)", "nuclei count": "3.12 z-score"}
{"Structure (SMILES)": "O=c1[nH]c2cc(Cl)ccc2c(O)c1-c1cccc(Oc2ccccc2)c1", "nuclei count": "1.46 z-score"}
{"data": "Series 3", "organism": "Sarcocystis neurona", "observed": "parasite growth", "concentration": "10 µM", "time": "96 h", "notes": "first screen", "baseline": "untreated"}
{"Structure (SMILES)": "CC(=O)OCC(CCn1cnc2cnc(N)nc21)COC(C)=O", "log2 fold change": -0.09}
{"Structure (SMILES)": "OCCN(CCO)c1nc(N2CCCCC2)c2nc(N(CCO)CCO)nc(N3CCCCC3)c2n1", "log2 fold change": 0.06}
{"Structure (SMILES)": "CC(COc1ccccc1)NC(C)C(O)c1ccc(O)cc1 (stereo not drawn)", "log2 fold change": 0.034}
{"Structure (SMILES)": "O=c1[nH]cnc2c1ncn2[C@H]1CC[C@@H](CO)O1", "log2 fold change": -0.09}
{"Structure (SMILES)": "O=c1cnn([C@@H]2O[C@H](CO)[C@@H](O)[C@H]2O)c(=O)[nH]1", "log2 fold change": 0.21}
{"Structure (SMILES)": "O=c1n(CCCN2CCN(c3cccc(Cl)c3)CC2)nc2ccccn12", "log2 fold change": 0.0157}
{"Structure (SMILES)": "CCN1CCN(C(=O)N[C@@H](C(=O)N[C@@H]2C(=O)N3[C@@H]2SC(C)(C)[C@@H]3C(=O)O)c2ccccc2)C(=O)C1=O", "log2 fold change": 0.018}
{"data": "Series 4", "target": "Serine/threonine-protein kinase Sgk2 (SGK2, Homo sapiens, UniProt Q9HBY8)", "observed": "enzyme activity", "mode": "inhibitor", "concentration": "0.5 µM", "baseline": "control", "Residues (Q9HBY8 1-367)": "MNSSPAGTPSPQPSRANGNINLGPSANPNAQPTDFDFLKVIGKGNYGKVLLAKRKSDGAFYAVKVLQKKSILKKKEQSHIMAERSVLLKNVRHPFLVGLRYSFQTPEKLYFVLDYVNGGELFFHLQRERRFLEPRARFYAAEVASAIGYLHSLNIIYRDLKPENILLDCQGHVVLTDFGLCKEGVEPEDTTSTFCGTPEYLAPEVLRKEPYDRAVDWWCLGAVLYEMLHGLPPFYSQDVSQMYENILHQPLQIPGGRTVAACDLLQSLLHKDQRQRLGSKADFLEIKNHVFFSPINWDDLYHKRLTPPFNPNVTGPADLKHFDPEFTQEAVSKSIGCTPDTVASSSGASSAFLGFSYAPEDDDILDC"}
{"Structure (SMILES)": "Cc1cccc(-c2[nH]c(C(C)(C)C)nc2-c2ccc3c(c2)OCO3)n1", "remaining activity": "100%"}
{"Structure (SMILES)": "C#Cc1cccc(Nc2ncnc3cc(OCCOC)c(OCCOC)cc23)c1", "remaining activity": "107%"}
{"Structure (SMILES)": "O=C(CCCc1ccc(-c2ccccc2F)cc1)Nc1ccc(O)cc1", "remaining activity": "101%"}
{"Structure (SMILES)": "Nc1[nH]nc2nc3ccccc3nc12", "remaining activity": "90.3%"}
{"Structure (SMILES)": "Nc1ccc2ncnc(NCCc3ccc(Oc4ccccc4)cc3)c2c1", "remaining activity": "99.6%"}
{"Structure (SMILES)": "COc1cc2ncnc(Nc3ccc(Oc4ccccc4)cc3)c2cc1OC", "remaining activity": "113%"}
{"Structure (SMILES)": "O=C(Nc1cccc(Nc2cc(Nc3cccc(C(F)(F)F)c3)ncn2)c1)C1CC1", "remaining activity": "99%"}
{"Structure (SMILES)": "Nc1ncnc2n[nH]c(Nc3ccc(F)cc3)c12", "remaining activity": "96.5%"}
{"Structure (SMILES)": "O=C1NC(=O)C(c2cn(CCCO)c3ncccc23)=C1c1cnccn1", "remaining activity": "96.9%"}
{"Structure (SMILES)": "Oc1ccc(-c2nc(-c3ccncc3)c(-c3ccc(F)cc3)[nH]2)cc1", "remaining activity": "99.6%"}
{"Structure (SMILES)": "CCOC(=O)c1c(C)[nH]c(/C=C2\\C(=O)Nc3ccccc32)c1C", "remaining activity": "93.7%"}
{"Structure (SMILES)": "O=C1NC(=O)C(c2cn(CCCn3ccnc3)c3ccccc23)=C1Nc1ccccc1", "remaining activity": "82.4%"}
{"Structure (SMILES)": "COc1ccc(CNC(=O)Nc2ncc([N+](=O)[O-])s2)cc1", "remaining activity": "99.5%"}
{"Structure (SMILES)": "CN(C)c1ccc(C=C2C(=O)Nc3ccccc32)cc1", "remaining activity": "98.6%"}
{"Structure (SMILES)": "COc1ccc(C(=O)Nc2sc3c(c2C(N)=O)CCCC3)cc1OC", "remaining activity": "100%"}
{"note": "A few entries again (series 1):"}
{"target": "Serine/threonine-protein kinase SIK1 (SIK1, Homo sapiens, UniProt P57059)", "method": "competition binding", "remaining binding [%]": 88}
{"target": "Receptor-type tyrosine-protein kinase FLT3 (FLT3, Homo sapiens, UniProt P36888, D835Y)", "observed": "cell-free assay", "method": "competition with immobilised ligand", "remaining binding [%]": 100}
{"target": "MAP kinase-activated protein kinase 5 (MAPKAPK5, Homo sapiens, UniProt Q8IW41)", "observed": "cell-free assay", "method": "competition with immobilised ligand", "remaining binding [%]": 91}
